Measured values from different studies.
Each numbered part is a random draw from the data of one study; scales do not carry over between parts.
UniProt Q12866, sequence (whole entry, looked up): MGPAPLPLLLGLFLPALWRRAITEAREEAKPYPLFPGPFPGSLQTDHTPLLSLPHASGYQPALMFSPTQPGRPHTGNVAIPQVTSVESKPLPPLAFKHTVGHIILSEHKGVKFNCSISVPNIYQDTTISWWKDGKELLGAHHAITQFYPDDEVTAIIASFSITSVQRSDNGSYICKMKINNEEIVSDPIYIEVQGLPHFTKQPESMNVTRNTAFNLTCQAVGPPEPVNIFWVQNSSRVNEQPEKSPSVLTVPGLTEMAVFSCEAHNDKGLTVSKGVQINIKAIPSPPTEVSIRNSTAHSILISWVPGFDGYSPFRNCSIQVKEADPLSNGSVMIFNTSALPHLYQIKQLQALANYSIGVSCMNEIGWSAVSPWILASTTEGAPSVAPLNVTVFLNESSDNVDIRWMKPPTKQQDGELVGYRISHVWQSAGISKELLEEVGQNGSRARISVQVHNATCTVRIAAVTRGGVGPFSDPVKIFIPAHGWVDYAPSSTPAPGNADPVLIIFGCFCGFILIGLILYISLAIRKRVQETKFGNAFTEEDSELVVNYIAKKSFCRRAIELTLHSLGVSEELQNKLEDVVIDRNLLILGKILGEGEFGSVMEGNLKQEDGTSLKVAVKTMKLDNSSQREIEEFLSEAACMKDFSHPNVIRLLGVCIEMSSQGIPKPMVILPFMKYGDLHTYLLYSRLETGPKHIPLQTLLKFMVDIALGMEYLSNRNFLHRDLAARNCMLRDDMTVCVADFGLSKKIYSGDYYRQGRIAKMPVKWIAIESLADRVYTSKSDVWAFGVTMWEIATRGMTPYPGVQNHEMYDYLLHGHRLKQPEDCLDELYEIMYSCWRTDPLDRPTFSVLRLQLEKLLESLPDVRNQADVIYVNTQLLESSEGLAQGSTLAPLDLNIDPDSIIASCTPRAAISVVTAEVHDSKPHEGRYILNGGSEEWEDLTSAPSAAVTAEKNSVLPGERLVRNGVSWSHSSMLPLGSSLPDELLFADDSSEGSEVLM
UniProt P07949, sequence (whole entry, unmodified, looked up): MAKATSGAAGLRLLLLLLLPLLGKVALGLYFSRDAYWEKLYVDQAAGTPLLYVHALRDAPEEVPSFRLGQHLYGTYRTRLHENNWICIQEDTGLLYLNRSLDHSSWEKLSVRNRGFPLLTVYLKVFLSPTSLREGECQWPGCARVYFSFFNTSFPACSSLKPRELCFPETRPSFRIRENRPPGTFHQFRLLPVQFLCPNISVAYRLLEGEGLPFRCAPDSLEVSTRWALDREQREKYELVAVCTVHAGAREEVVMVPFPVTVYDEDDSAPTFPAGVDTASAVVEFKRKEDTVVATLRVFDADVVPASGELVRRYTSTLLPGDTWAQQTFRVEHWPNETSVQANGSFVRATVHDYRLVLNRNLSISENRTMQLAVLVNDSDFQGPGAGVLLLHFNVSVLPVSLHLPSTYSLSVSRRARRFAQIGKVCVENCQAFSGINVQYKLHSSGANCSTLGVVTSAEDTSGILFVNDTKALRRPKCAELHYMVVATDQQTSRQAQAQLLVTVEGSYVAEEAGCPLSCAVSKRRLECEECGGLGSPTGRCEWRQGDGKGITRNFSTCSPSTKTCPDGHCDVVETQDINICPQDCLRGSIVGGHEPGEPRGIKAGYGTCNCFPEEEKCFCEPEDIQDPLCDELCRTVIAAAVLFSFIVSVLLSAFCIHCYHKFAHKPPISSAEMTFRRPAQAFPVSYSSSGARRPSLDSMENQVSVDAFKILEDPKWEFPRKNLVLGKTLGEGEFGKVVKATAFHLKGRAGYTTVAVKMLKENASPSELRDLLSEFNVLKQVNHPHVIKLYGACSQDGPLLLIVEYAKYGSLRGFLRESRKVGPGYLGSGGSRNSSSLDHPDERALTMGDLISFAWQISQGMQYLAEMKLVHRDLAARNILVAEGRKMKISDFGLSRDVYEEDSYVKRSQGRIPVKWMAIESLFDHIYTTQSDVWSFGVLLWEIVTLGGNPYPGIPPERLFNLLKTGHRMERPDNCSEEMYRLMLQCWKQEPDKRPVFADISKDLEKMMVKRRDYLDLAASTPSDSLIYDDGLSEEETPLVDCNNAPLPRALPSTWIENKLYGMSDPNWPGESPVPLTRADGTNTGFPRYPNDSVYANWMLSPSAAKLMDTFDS
UniProt P36896, sequence (whole entry, looked up): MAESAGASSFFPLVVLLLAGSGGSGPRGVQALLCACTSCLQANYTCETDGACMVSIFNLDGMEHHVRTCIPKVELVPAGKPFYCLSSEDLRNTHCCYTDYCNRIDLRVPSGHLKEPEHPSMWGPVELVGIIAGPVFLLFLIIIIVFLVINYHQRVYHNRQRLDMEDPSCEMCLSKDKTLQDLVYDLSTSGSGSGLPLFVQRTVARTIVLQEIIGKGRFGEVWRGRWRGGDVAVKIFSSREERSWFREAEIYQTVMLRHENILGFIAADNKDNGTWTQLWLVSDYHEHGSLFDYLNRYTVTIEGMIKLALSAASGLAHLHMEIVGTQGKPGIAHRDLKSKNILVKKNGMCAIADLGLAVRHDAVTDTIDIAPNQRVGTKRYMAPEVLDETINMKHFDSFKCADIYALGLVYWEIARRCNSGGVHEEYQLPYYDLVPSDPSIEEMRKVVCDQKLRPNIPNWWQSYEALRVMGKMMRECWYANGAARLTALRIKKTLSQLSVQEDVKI
UniProt Q9UL54, sequence (whole entry, looked up): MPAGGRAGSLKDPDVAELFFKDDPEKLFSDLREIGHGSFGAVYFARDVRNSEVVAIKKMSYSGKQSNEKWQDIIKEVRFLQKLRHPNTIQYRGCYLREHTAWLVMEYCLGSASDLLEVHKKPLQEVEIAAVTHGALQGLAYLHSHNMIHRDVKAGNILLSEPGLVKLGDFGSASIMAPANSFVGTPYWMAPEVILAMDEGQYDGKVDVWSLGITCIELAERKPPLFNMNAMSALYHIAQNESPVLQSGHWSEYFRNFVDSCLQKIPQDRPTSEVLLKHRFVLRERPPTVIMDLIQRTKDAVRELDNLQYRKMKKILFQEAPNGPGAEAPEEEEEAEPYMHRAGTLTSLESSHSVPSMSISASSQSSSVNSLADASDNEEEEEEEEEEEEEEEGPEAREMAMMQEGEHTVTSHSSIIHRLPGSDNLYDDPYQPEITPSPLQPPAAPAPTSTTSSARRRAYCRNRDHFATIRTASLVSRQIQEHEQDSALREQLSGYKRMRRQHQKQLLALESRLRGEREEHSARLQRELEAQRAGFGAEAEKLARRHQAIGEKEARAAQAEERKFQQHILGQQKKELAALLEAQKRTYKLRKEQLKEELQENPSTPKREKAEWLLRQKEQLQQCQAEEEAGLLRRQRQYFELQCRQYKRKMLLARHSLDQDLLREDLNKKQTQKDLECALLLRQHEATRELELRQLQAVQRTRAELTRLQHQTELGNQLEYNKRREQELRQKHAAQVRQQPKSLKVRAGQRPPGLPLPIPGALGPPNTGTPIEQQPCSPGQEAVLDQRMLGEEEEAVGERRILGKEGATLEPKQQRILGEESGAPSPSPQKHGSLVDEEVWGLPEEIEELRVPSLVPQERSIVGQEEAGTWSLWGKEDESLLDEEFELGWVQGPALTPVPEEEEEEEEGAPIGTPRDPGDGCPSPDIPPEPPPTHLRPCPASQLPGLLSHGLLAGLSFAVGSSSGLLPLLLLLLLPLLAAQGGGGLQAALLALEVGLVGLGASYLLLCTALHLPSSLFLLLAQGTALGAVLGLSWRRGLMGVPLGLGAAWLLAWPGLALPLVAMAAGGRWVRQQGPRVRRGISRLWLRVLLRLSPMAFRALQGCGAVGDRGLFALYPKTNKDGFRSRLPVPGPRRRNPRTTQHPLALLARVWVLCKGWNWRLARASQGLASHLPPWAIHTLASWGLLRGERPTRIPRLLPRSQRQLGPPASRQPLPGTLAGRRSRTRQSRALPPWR
UniProt P30291, sequence (whole entry, looked up): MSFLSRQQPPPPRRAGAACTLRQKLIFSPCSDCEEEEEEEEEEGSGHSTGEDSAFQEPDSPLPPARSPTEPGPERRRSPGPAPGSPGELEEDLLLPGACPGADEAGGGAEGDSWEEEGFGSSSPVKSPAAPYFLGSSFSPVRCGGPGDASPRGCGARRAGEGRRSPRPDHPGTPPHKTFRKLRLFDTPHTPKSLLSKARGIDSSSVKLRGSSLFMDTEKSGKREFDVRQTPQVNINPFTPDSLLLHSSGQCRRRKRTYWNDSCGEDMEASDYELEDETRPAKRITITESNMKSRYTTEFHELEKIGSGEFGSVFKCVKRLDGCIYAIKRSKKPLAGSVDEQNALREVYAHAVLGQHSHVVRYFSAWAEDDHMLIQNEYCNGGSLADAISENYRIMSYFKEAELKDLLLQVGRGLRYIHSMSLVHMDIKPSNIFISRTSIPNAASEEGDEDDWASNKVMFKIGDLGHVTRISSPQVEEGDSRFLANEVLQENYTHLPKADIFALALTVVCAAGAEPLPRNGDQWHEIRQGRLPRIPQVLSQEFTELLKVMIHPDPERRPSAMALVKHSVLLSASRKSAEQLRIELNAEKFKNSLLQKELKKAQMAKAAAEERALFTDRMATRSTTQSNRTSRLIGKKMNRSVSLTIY
UniProt Q13557, sequence (whole entry, looked up): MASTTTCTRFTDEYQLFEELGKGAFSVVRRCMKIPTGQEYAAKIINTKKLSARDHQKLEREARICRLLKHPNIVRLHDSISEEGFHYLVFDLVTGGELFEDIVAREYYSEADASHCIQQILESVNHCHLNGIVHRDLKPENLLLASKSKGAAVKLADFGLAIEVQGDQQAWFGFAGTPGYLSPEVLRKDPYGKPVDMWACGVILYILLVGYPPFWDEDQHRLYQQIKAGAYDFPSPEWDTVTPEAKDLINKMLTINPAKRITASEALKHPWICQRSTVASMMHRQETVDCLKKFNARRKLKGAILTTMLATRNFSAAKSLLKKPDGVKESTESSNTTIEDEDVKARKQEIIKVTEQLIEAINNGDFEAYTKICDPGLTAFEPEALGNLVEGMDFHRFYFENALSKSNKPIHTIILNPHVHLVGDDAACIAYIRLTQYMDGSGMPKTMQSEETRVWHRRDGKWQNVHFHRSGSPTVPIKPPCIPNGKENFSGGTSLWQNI

Sample 1 — effect on: enzyme activity; mode: inhibitor; concentration: 0.5 µM; reference: control; measurement: remaining activity
Structure (SMILES): C#Cc1cccc(Nc2ncnc3cc(OCCOC)c(OCCOC)cc23)c1
TAOK2 (Homo sapiens, UniProt Q9UL54): 106%
MERTK (Homo sapiens, UniProt Q12866): 99%
ACVR1B (Homo sapiens, UniProt P36896): 101%
WEE1 (Homo sapiens, UniProt P30291): 95.2%
TEK (Homo sapiens, UniProt Q02763): 94%

Sample 2 — technique: RNA Bind-n-Seq; molecule type: RNA; matrix: in vitro; concentration: 365 nM; reference: no-protein control; reading: higher = stronger binding; measurement: RBNS enrichment (R)
Target: RNA binding protein fox-1 homolog 2, RRM domain, GST-SBP tag (RBFOX2, Homo sapiens, UniProt O43251-10, residues 100-194)
Notes: natural RNA segment, single round, ends assumed
All sequences stand within: GGGAGUUCUACAGUCCGACGAUC … UGGAAUUCUCGGGUGCCAA
Target sequence (chain): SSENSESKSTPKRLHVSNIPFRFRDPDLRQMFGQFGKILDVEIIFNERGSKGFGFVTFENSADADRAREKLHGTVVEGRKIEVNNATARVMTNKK
AGCAGCCCCUAAGUGGGCCUCUAGAGCUGAAGACACACCCCUGGUGCCACCAGCCUGUGUGGCCCCUCCCCUUGGCCCUAGCUCCCAGCACCUCCCUACCCUUCAGCAGC: 1.01
AUGGAUAACUCUGUGAACAGUCUUGACUUUUUGUAUCAUGAGACAGAGUGCCUAAGAGAAACCCUUGCACCUGGGAGCGCUGCUUGGCUCUAUCUCUACAACAUUUAAUG: 0.77
GUGCCAAAUUUUCCACCCAGUAUAAAUUUAGUAACCCGCUAUGAGCAUAUGUAGGAUAUUCAAUUUGCAGAUACUUUUGUUGGUUAUGUUGGUUUAUAAUAGACAAGUUU: 0.487
AUGAAGAGUGGGAAGGCGGCCUAGGCUCCAUGGGCCACUAUGAGAAAUAGCCUCUCUUUCCUGGGAACCCUCUGUGGUCCUCUCUAAAAGACCCAGAUAUACUGUUAUGG: 0.252
GAUUCUAUCCAGCAAGGUCCUGUUUCCAAGAGUAGCCUAUGGAAUCUGAUCAGUUACUUUAAAAAAUGACUUCUUAUUUUUUAAAUGUUUCCACAUUUUUUGCUUGUGGA: 0.525
UGUGCAGAAAGACGCUGAAAGUGCAAAAUGUAUUGGGGAAUAACCUUGUUGAAUCACAAUAAUGGUGUUGGGCCAAAGCCACAUUUUUAUAAAGCCAAGUAAACACAAAU: 0.784
UCUGAAGGCAAGACUGGGAUUGGAUCACUUCUUAAACUUCCAGUUAAGAAUCUAGGUCCGCCCUCAAGCCCAUACUGACCAUGCCUCAUCCAGAGCUCCUCUGAAGCCAG: 0.242
GGUGUCACCGUCUUAGCCCUUUGUUUUCCUUACUAGAGUAUCUUUCCCGCACCCCUAGGUUUGUAUUCUGGUUCUACUGGCUUUUCUCAGUGGGACACCAAGGUAGAAAG: 0.334

Sample 3 — concentration: 1 µM; measurement: remaining binding
Compound: O=C(N1CCS(=O)(=O)CC1)N1C[C@H](c2ccc(OC(F)(F)F)cc2)C[C@H](c2nc(C3CC3)no2)C1
CAMK2D (Homo sapiens, UniProt Q13557); cell-free assay, competition with immobilised ligand: 100%
CDC42BPG (Homo sapiens, UniProt Q6DT37); competition binding: 100%
TGFBR1 (Homo sapiens, UniProt P36897); cell-free assay, competition with immobilised ligand: 100%
Ribosomal protein S6 kinase alpha-2, C-terminal kinase domain (RPS6KA2, Homo sapiens, UniProt Q15349); cell-free assay, competition with immobilised ligand: 100%
RET (Homo sapiens, UniProt P07949, V804M); cell-free assay, competition with immobilised ligand: 100%
NLK (Homo sapiens, UniProt Q9UBE8); cell-free assay, competition with immobilised ligand: 100%
EGFR (Homo sapiens, UniProt P00533); cell-free assay, competition with immobilised ligand: 100%

Sample 4 — technique: universal PBM; molecule type: double-stranded DNA, one strand shown; matrix: in vitro; concentration: not given; reading: higher = stronger binding; measurement: E-score
Target: Sal-like protein 4, full length isoform B (SALL4, Homo sapiens, UniProt Q9UJQ4-2, residues 1-616)
Notes: 8-mer, flanks averaged, mean of replicates
CCAATGTC: 0.00216
AGGGCAGA: -0.0704
GACGGTAC: 0.0389
CCGCGTAA: -0.0901
GTGAGTCA: -0.0864
CGCTGCTA: -0.27
GCGCTAAA: -0.0373
CCGACGCA: -0.192

For quick reference, copied from above (sample 4):
GACGGTAC: 0.0389
CCGCGTAA: -0.0901
GTGAGTCA: -0.0864
CGCTGCTA: -0.27
